Results gathered from unrelated publications.
Every numbered part comes from another study and shows a few of its results, in no order. Changes are numbered by the printed parent chain.

Series 1
Target: CCND3, cyclin fold, Cln2 fusion (human)
Technique: yeast growth competition, sequencing
Matrix: yeast
Setting: weak parent motif
Baseline: not given
Reading: higher = stronger binding
Starting sequence: CDC6 docking peptide (human); TLKGRRLVFDNQL
| Variant | normalised enrichment score |
| --- | --- |
| F9K | 0.264 |
| T1F | 0.0181 |
| K3D | 0.0439 |
| V8L | 0.186 |
| L2P | 0.0974 |
| L2E | 0.0588 |
| G4K | 0.0601 |
| R5A | 0.134 |
| N11V | 0.108 |
| Q12W | 0.223 |

Series 2
Target: RNA binding protein fox-1 homolog 2, RRM domain, GST-SBP tag (RBFOX2, Homo sapiens, UniProt O43251-10, residues 100-194)
Technique: RNA Bind-n-Seq
Form: RNA
Matrix: in vitro
Concentration: 365 nM
Setting: natural RNA segment, single round, ends assumed
Baseline: no-protein control
Reading: higher = stronger binding
Construct (chain): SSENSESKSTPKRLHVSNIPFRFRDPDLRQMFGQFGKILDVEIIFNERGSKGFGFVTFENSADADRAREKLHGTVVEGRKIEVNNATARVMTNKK
| Strand | RBNS enrichment (R) |
| --- | --- |
| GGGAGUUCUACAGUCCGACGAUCGCAGACACACUGAUCUGAACAUCUGGCCCAAGUGAAGCAUGGCAUAUAGUGCCCUUGGAAGAAAAUUAGGCCUCAAAUGACAGUAGCAUUGAAGUGUUUGCUGCAGAGUUUGGAAUUCUCGGGUGCCAA | 1.3 |
| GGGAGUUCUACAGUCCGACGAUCCCCGCUAACUUCAGCCUCUCAUCUGCUGCUCCGGGCUGAGGGACUAGAGGACAUCUCGGUCGUUUGAGGGGCAUGGCCAGUCGUGGCAGGCCGGCCUUCAGCGUCCGGUCUGGAAUUCUCGGGUGCCAA | 0.518 |
| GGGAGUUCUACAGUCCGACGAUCUCUUUUAAGUAAGUUCCAAGAUCCAUGAAUUAACAGAGGCAUAUAUUUAAAAUGAAAUUUAAUGAGCACUUAGUGACUUCAUUUGUUCAAGAAUAUUUGAUUUCCUAUUGUGGAAUUCUCGGGUGCCAA | 0.269 |
| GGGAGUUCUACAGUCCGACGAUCAGUUCCAAAGCACAUAAGCUAGAAGAAGAAAUAUUUCUAGGAGCACUACCAUCUGUUUUCAACAUGAAAUGCCACACACAUAGAACUCCAACAUCAAUUUCAUUGCACAGUGGAAUUCUCGGGUGCCAA | 0.843 |
| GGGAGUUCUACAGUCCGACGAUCCCAGACUUGCACUGGGGUGGGAUUUGGAGUGAUGGGAAGGUUUUUAAGGGCCGGGGAUGGAUCUUUUCUAAAUGUUAUUACUUGUAAAUAAAGUCUAUUUUUCUCCCGUGUGGAAUUCUCGGGUGCCAA | 0.854 |
| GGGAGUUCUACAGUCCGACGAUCCUUUUUUACAACCCUUGUCCUUGGAGUUCUUAAGAUGUUGAGCGUUACCAAAUAAACCGCAUGAGACACAGCGAGCAGUGAAGUCUUUACAAGAUUAUGCAUUUGCCGAUUGGAAUUCUCGGGUGCCAA | 2.5 |
| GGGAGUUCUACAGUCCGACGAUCGUAUGUAUGUUCUGUACAUACUUAUCGGAGCGCGCCAGUAAGUAUCAGGCAUAUAUAUCUGUCUGUUAGCAAUGAUUAUUACAUCAUCAGAUCAGCAUGUGCUAUACUCCUGGAAUUCUCGGGUGCCAA | 1.26 |
| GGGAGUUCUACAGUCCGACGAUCUAGUAUGGGCGAGCCACCCUCAGCUCUUUUAUUGGCCGGGGCUAUAAACCAUGGCUGGGCAUAACUAUUCCGAACUGUCCCCCCAUCAGGAUACAAGAUGCUGAGAGGGCUGGAAUUCUCGGGUGCCAA | 0.3 |
| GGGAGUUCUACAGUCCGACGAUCUGUGUGGUGAUUCUGGGCUCUCCACAACCAGCUCAAAGCAGCUAGCACCCGUGCUCACUGUUGUUGGACGGGCUGGUCCACAGCCUCAGACCCACGCUCUGCCGAGAUACUGGAAUUCUCGGGUGCCAA | 0.292 |
| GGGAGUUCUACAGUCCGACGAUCCAUGUGCAAUAAGACUGGUGUUCGUUUCCAUCAUGUCUGUAUACUUCUGUCAUCUAGACUGUGCAUCCCUGUAAUACCUGACUGAUCACAGUGUUAGUGCUGGUCAGAGAUGGAAUUCUCGGGUGCCAA | 0.358 |
| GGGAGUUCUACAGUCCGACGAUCGGCCUCUUGGAUCCACUGGCCCAGAGAUUUAAAAGUUUGGGGUUGAGGAUGUGUGUAGCUCAGUUGGUAGACUGAUUGCCCUACAUGAACGGGACUGAAUUUGAUCACCAUGGAAUUCUCGGGUGCCAA | 0.385 |
| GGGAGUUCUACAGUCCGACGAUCGAAAUGUGGCAGCCCAUUCCAGCACACAGGCUUCUGCAGCAAUCUCUGAGGGUAAAGCCGGUGGGAGGCUCAGCAGGCCAGGAGGCCCAAGGACAGGACUUGCGACCUUGUGGAAUUCUCGGGUGCCAA | 0.882 |

Series 3
Target: Sal-like protein 4, full length isoform B (SALL4, Homo sapiens, UniProt Q9UJQ4-2, residues 1-616)
Technique: universal PBM
Form: double-stranded DNA, one strand shown
Matrix: in vitro
Concentration: not given
Setting: 8-mer, flanks averaged, mean of replicates
Reading: higher = stronger binding
| Strand | E-score |
| --- | --- |
| CTTGGTAC | 0.0199 |
| ACGTAGAA | 0.11 |
| TAATCGCA | 0.156 |
| AACATGTT | 0.268 |
| ATGCGCGC | -0.0482 |
| AGGCGAGG | -0.233 |
| ACATTTCG | 0.0756 |
| CTTCGACA | 0.0112 |
| ACCTACGG | -0.29 |
| ATACGAAC | 0.156 |
| TCCGAGCA | -0.188 |
| ATGCGTGG | -0.109 |
| ACCCGCCT | -0.301 |
| GGGAATCA | -0.0585 |
| ACCAATCC | -0.119 |
| AGAGGCCC | -0.291 |
| ACTGCACC | -0.162 |

Series 4
Target: Ras GTPase-activating protein-binding protein 1, full length (G3BP1, Homo sapiens, UniProt Q13283)
UniProt Q13283, sequence (whole entry, looked up): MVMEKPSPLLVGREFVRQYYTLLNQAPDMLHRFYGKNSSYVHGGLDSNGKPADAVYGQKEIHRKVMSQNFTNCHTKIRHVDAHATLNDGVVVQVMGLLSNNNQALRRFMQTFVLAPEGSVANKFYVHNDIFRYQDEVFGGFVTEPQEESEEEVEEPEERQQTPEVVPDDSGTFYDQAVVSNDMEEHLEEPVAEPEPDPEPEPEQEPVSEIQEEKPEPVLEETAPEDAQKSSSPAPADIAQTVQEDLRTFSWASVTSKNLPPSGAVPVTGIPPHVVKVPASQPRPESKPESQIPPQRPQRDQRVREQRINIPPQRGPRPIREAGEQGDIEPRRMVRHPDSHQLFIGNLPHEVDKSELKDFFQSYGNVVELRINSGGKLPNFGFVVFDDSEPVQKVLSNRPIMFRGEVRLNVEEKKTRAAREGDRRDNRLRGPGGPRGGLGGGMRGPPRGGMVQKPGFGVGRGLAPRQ
Technique: RNA Bind-n-Seq
Form: RNA
Matrix: in vitro
Concentration: 200 nM
Setting: whole 134-nt RNA, ends assumed
With: 150 mM LiCl
Baseline: input library
Reading: higher = stronger binding
Each molecule: 7-deaza-guanosine replaces G
| Strand | log2 enrichment |
| --- | --- |
| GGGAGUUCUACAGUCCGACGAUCCUGUGCUACACAUCGUAUGUACCGAAUCGGAAAAAAAGGGGAAAAAAAGGGGAAAAAAAGGGAAAGUAUUAUGUUACGCCGUUCGGAUCUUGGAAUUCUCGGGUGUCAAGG | 0.187 |
| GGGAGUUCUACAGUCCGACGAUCAAGUCCUGUGCUACACAUCGUAUGUACCGAAUCGGCCCGGGGCCCGGGGCCCGGGGAAAGUAUUAUGUUACGCCGUUCGGAUCUGCACUUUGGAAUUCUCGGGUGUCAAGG | -0.218 |
| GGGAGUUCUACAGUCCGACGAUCCACAGACAACACGCACCCACACAGACACAGAGGGAAGGGGUUGGGAUGGGGACAGGGUGCACAGCAGGGCGGGGAAGGACCCCAGCCCCUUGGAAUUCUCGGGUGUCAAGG | 1.09 |
| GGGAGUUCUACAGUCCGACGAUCUCCUCAAGUCCUGUGCUACACAUCGUAUGUACCGAAUCGGCGGCGGCGGGGAAAGUAUUAUGUUACGCCGUUCGGAUCUGCACUUCCAGCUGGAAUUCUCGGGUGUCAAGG | 1.1 |
| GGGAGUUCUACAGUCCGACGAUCCCUGUGCUACACAUCGUAUGUACCGAAUCGGGAAAAAAAGGAAAAAAAGGAAAAAAAGGGGAAAGUAUUAUGUUACGCCGUUCGGAUCUGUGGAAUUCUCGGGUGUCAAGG | 0.115 |
| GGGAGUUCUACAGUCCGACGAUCUAGCAUAUUGCCUUGUUCACUACCGAGGAGAUGAGAAGAUUAAAGGUUUCAUAUGGGAUCUCAUUACUCCAACUGAAGAUGGACAGACACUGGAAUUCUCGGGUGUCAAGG | 0.813 |
| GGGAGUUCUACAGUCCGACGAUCUCAAGUCCUGUGCUACACAUCGUAUGUACCGAAUCGGGGUUGGGUUGGGUUGGGGAAAGUAUUAUGUUACGCCGUUCGGAUCUGCACUUCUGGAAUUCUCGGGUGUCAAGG | 0.633 |
| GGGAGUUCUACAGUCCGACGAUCCACAGACAACACGGACCCACACAGACACAGAGGGAAGGGGUUGGGAUGGGGACAGGGUGCACAGCAGGGCGGGGUAGGACCCCAGCCCCUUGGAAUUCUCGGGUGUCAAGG | -0.978 |
| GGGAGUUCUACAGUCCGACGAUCUAACUUUAGAGGAGGAUCUGAUGUAUAUGGCAGUGGACGUGGAUUUGGGGAUGGCUAUAAUGGGUAUGGAGGAGGACCUGGAGGUGGCAAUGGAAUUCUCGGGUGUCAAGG | 0.101 |
| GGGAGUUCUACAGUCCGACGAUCUAACUUUAGAGGAGGAUCUGAUGGAUAUGGCAGUGGACGUGGAUUUGGGGACGGCUAUAAUGGGUAUGGAGGAGGACCUGGAGGUGGCAAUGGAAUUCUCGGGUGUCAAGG | 0.00479 |
| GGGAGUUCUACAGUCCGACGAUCUCAAGUCCUGUGCUACACAUCGUAUGUACCGAAUCGGGGAAAGGAAAGGAAAGGAAAGUAUUAUGUUACGCCGUUCGGAUCUGCACUUCCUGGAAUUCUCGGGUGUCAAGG | -0.172 |

Excerpt of the above (series 2):
| Strand | RBNS enrichment (R) |
| --- | --- |
| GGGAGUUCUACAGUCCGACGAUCAGUUCCAAAGCACAUAAGCUAGAAGAAGAAAUAUUUCUAGGAGCACUACCAUCUGUUUUCAACAUGAAAUGCCACACACAUAGAACUCCAACAUCAAUUUCAUUGCACAGUGGAAUUCUCGGGUGCCAA | 0.843 |
| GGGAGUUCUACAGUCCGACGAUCCCAGACUUGCACUGGGGUGGGAUUUGGAGUGAUGGGAAGGUUUUUAAGGGCCGGGGAUGGAUCUUUUCUAAAUGUUAUUACUUGUAAAUAAAGUCUAUUUUUCUCCCGUGUGGAAUUCUCGGGUGCCAA | 0.854 |
| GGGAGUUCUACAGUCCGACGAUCCUUUUUUACAACCCUUGUCCUUGGAGUUCUUAAGAUGUUGAGCGUUACCAAAUAAACCGCAUGAGACACAGCGAGCAGUGAAGUCUUUACAAGAUUAUGCAUUUGCCGAUUGGAAUUCUCGGGUGCCAA | 2.5 |
| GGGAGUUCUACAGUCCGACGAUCGUAUGUAUGUUCUGUACAUACUUAUCGGAGCGCGCCAGUAAGUAUCAGGCAUAUAUAUCUGUCUGUUAGCAAUGAUUAUUACAUCAUCAGAUCAGCAUGUGCUAUACUCCUGGAAUUCUCGGGUGCCAA | 1.26 |
| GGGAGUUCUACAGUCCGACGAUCUAGUAUGGGCGAGCCACCCUCAGCUCUUUUAUUGGCCGGGGCUAUAAACCAUGGCUGGGCAUAACUAUUCCGAACUGUCCCCCCAUCAGGAUACAAGAUGCUGAGAGGGCUGGAAUUCUCGGGUGCCAA | 0.3 |
| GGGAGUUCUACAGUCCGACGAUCUGUGUGGUGAUUCUGGGCUCUCCACAACCAGCUCAAAGCAGCUAGCACCCGUGCUCACUGUUGUUGGACGGGCUGGUCCACAGCCUCAGACCCACGCUCUGCCGAGAUACUGGAAUUCUCGGGUGCCAA | 0.292 |
| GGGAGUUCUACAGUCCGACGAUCCAUGUGCAAUAAGACUGGUGUUCGUUUCCAUCAUGUCUGUAUACUUCUGUCAUCUAGACUGUGCAUCCCUGUAAUACCUGACUGAUCACAGUGUUAGUGCUGGUCAGAGAUGGAAUUCUCGGGUGCCAA | 0.358 |
| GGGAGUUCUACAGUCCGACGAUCGGCCUCUUGGAUCCACUGGCCCAGAGAUUUAAAAGUUUGGGGUUGAGGAUGUGUGUAGCUCAGUUGGUAGACUGAUUGCCCUACAUGAACGGGACUGAAUUUGAUCACCAUGGAAUUCUCGGGUGCCAA | 0.385 |
